{"data": "Experimental data of several laboratories", "rep main protease": "Replicase polyprotein 1ab, main protease (rep, Severe acute respiratory syndrome coronavirus 2, UniProt P0DTD1)", "note": "Lines come from different studies, so protocols differ. Numbers after ± are the reported error."}
{"SMILES": "CCCCOc1cc(C(=O)NCCN(CC)CC)c2ccccc2n1", "tested on": "SARS-CoV-2", "test": "viral replication, GFP plate reader screen", "setting": "cell-based", "measurement": "EC50", "value": "29.1 µM"}
{"SMILES": "CN(C)S(=O)(=O)NCC1CCOC2(CCN(C(=O)C3(c4cccc(C(F)(F)F)c4)CCCC3)CC2)C1 (stereo not shown)", "tested on": "Venezuelan equine encephalitis virus", "test": "viral replication", "measurement": "EC50", "value": "> 39.8 µM"}
{"SMILES": "CN1CCN(CCCN2c3ccccc3Sc3ccccc32)CC1", "tested on": "SARS-CoV-2", "test": "viral replication, GFP plate reader screen", "setting": "cell-based", "measurement": "EC50", "value": "14 µM"}
{"SMILES": "O=C(N1CCC2(CC1)CC(Nc1ccccc1)CCO2)C1(c2ccccc2)CCCC1 (stereo not shown)", "tested on": "Venezuelan equine encephalitis virus", "test": "viral replication", "measurement": "EC50", "value": "15.8 µM"}
{"SMILES": "NC(=O)c1ncn([C@@H]2O[C@H](CO)[C@@H](O)[C@H]2O)n1", "tested on": "influenza A virus", "test": "viral replication", "system": "MA104, H7N9", "measurement": "EC50", "value": "3.7 µM"}
{"SMILES": "COc1ccc2c(c1)N(C[C@H](C)CN(C)C)c1ccccc1S2", "tested on": "SARS-CoV-2", "test": "viral replication, high-content imaging screen", "setting": "cell-based", "measurement": "EC50", "value": "> 100 µM"}
{"SMILES": "COc1ccc(NC(=O)NCC2CCOC3(CCN(C(=O)C4(c5ccccc5)CCCC4)CC3)C2)cc1 (stereo not shown)", "tested on": "Venezuelan equine encephalitis virus", "test": "viral replication", "measurement": "EC50", "value": "> 39.8 µM"}
{"SMILES": "O=C(N1CCC2(CC1)C[C@@H](CN1CCCCS1(=O)=O)CCO2)C1(c2ccccc2)CCCC1", "tested on": "Powassan virus", "test": "viral replication", "measurement": "EC50", "value": "> 32 µM"}
{"SMILES": "O=C1c2c(O)c(=O)ccn2N([C@@H]2c3ccccc3SCc3c2ccc(F)c3F)[C@@H]2COCCN12", "tested on": "Influenza A virus", "test": "viral replication", "system": "A(H9N2) A/environment/Bangladesh/12068/2011", "setting": "mean", "measurement": "EC50", "value": "0.00055 ± 4e-05 µM"}
{"SMILES": "Cn1cnc(Cn2c(=O)[nH]/c(=N\\c3cc4cn(C)nc4cc3Cl)n(Cc3cc(F)c(F)cc3F)c2=O)n1", "system": "human, moderate severity, treatment-related TEAE", "setting": "oral, 375 mg", "measurement": "patients with TEAE", "value": "3.1%"}
{"SMILES": "O=c1ccn([C@@H]2O[C@](F)(CO)[C@@H](O)[C@H]2O)c(=O)[nH]1", "tested on": "Mammarenavirus lassaense", "test": "viral replication", "system": "HeLa", "measurement": "EC50", "value": "2.58 µM"}
{"SMILES": "Nc1nc2nn[nH]c2c(=O)[nH]1", "tested on": "SARS-CoV-2", "test": "viral replication, GFP plate reader screen", "setting": "cell-based", "measurement": "EC50", "value": "> 50.1 µM"}
{"SMILES": "CC[C@H](C)[C@H](NC(=O)[C@H](CC(C)C)NC(=O)[C@H](Cc1c[nH]c2ccccc12)NC(=O)[C@H](CCC(N)=O)NC(=O)[C@@H](NC(=O)[C@H](Cc1ccccc1)NC(=O)[C@H](C)NC(=O)[C@H](CCCCNC(=O)COCCOCCNC(=O)COCCOCCNC(=O)CC[C@H](NC(=O)CCCCCCCCCCCCCCCCCCC(=O)O)C(=O)O)NC(=O)[C@H](CCC(N)=O)NC(=O)[C@H](C)NC(=O)[C@@H](NC(=O)[C@H](CCCCN)NC(=O)[C@H](CC(=O)O)NC(=O)[C@H](CC(C)C)NC(=O)C(C)(C)NC(=O)[C@@H](NC(=O)[C@H](CO)NC(=O)[C@H](Cc1ccc(O)cc1)NC(=O)[C@H](CC(=O)O)NC(=O)[C@H](CO)NC(=O)[C@@H](NC(=O)[C@H](Cc1ccccc1)NC(=O)[C@@H](NC(=O)CNC(=O)[C@H](CCC(=O)O)NC(=O)C(C)(C)NC(=O)[C@@H](N)Cc1ccc(O)cc1)[C@@H](C)O)[C@@H](C)O)[C@@H](C)CC)[C@@H](C)CC)C(C)C)C(=O)N[C@@H](C)C(=O)NCC(=O)NCC(=O)N1CCC[C@H]1C(=O)N[C@@H](CO)C(=O)N[C@@H](CO)C(=O)NCC(=O)N[C@@H](C)C(=O)N1CCC[C@H]1C(=O)N1CCC[C@H]1C(=O)N1CCC[C@H]1C(=O)N[C@@H](CO)C(N)=O", "system": "human, plasma", "setting": "subcutaneous, once weekly, multiple dose", "measurement": "steady-state CL/F", "value": "0.933 mL/min"}
{"SMILES": "O=C(NCC1CCOC2(CCN(C(=O)C3(c4ccccc4)CCCC3)CC2)C1)c1ccncc1 (stereo not shown)", "tested on": "Venezuelan equine encephalitis virus", "test": "viral replication", "measurement": "EC50", "value": "> 39.8 µM"}
{"SMILES": "Nc1ncnc2c([C@@H]3N[C@H](CO)[C@@H](O)[C@H]3O)c[nH]c12", "tested on": "Marburg virus", "test": "viral replication", "system": "HeLa, Musoke", "setting": "100 µM", "measurement": "inhibition", "value": "98%"}
{"SMILES": "NC(=O)c1nc(F)c[nH]c1=O", "tested on": "influenza A virus", "test": "viral replication", "system": "A549, H5N1", "measurement": "EC50", "value": "6.2 µM"}
{"SMILES": "O=c1[nH]c(=O)n([C@H]2C[C@H](O)[C@@H](CO)O2)cc1/C=C/Br", "tested on": "vaccinia virus", "test": "viral replication", "system": "HEL", "measurement": "EC50", "value": "10 µM"}
{"SMILES": "CC(C)(C)C(=O)Oc1ccc(S(=O)(=O)Nc2ccccc2C(=O)NCC(=O)O)cc1", "tested on": "rep main protease", "test": "reporter gene (mKate2), inhibitor", "setting": "20 µM", "measurement": "inhibition", "value": "0.0333%"}
{"SMILES": "CN(C)CCCN1c2ccccc2Sc2ccccc21", "tested on": "SARS-CoV-2", "test": "viral replication, high-content imaging screen", "setting": "cell-based", "measurement": "EC50", "value": "> 100 µM"}
{"SMILES": "CCCCCC(=O)NCC1CCOC2(CCN(C(=O)C3(c4ccccc4)CCCC3)CC2)C1 (stereo not shown)", "tested on": "Venezuelan equine encephalitis virus", "test": "viral replication", "measurement": "EC50", "value": "12.6 µM"}
{"SMILES": "CNC(=O)[C@@H](NC(=O)[C@H](CC(C)C)[C@H](O)C(=O)NO)C(C)(C)C", "tested on": "C2C12", "test": "cell viability", "setting": "100 µM, with: snake venom", "how to read": "relative to: venom alone", "measurement": "viability difference", "value": "-14.6%"}
{"SMILES": "O=C(NO)c1ccc(C2=Nc3ccccc3Oc3ccccc32)cc1", "tested on": "SARS-CoV-2", "test": "viral replication, GFP plate reader screen", "system": "BetaCov/Belgium/GHB-03021/2020", "setting": "cell-based", "measurement": "EC50", "value": "> 100 µM"}
{"SMILES": "CCCCCCOc1ccc(C(=O)NCC2CCOC3(CCN(C(=O)C4(c5ccccc5)CCCC4)CC3)C2)cc1 (stereo not shown)", "tested on": "Venezuelan equine encephalitis virus", "test": "viral replication", "measurement": "EC50", "value": "> 39.8 µM"}
{"SMILES": "C=C[C@@H]1C[C@]1(NC(=O)[C@@H]1C[C@@H](Oc2ncc(OC)c3ccc(Cl)cc23)CN1C(=O)[C@@H](NC(=O)OC(C)(C)C)C(C)(C)C)C(=O)NS(=O)(=O)C1CC1", "tested on": "rep main protease", "test": "reporter gene (Gaussia luciferase), inhibitor", "setting": "20 µM", "measurement": "inhibition", "value": "2.47%"}
{"SMILES": "O=C(O[C@@H]1O[C@@H]2COC(=O)c3cc(O)c(O)c(O)c3-c3c(cc(O)c(O)c3O)C(=O)O[C@H]([C@H]1O)[C@@H]2O)c1cc(O)c(O)c(O)c1", "tested on": "Spike glycoprotein (Severe acute respiratory syndrome coronavirus 2, UniProt P0DTC2)", "test": "binding, BLI", "measurement": "Kd", "value": "931 nM"}
{"note": "For quick reference, copied from above:"}
{"SMILES": "CCCCCC(=O)NCC1CCOC2(CCN(C(=O)C3(c4ccccc4)CCCC3)CC2)C1 (stereo not shown)", "tested on": "Venezuelan equine encephalitis virus", "test": "viral replication", "measurement": "EC50", "value": "12.6 µM"}
{"SMILES": "CNC(=O)[C@@H](NC(=O)[C@H](CC(C)C)[C@H](O)C(=O)NO)C(C)(C)C", "tested on": "C2C12", "test": "cell viability", "setting": "100 µM, with: snake venom", "how to read": "relative to: venom alone", "measurement": "viability difference", "value": "-14.6%"}
{"SMILES": "O=C(NO)c1ccc(C2=Nc3ccccc3Oc3ccccc32)cc1", "tested on": "SARS-CoV-2", "test": "viral replication, GFP plate reader screen", "system": "BetaCov/Belgium/GHB-03021/2020", "setting": "cell-based", "measurement": "EC50", "value": "> 100 µM"}
